Results of several laboratories.
Numbered parts are unrelated; each lists some results of a single study.

Sample 1 — read-out: enzyme activity; mode: inhibitor
Target: Replicase polyprotein 1ab, main protease (rep, Severe acute respiratory syndrome coronavirus 2, UniProt P0DTD1)
With `O=C(c1cccs1)c1no[n+]([O-])c1C(=O)c1cccs1` the IC50 was 10.7 µM.
With `Nc1nc(-c2ccc(Cl)c(Cl)c2)c(-c2ccncc2)s1` the IC50 was 5.37 µM.
`O=C(O)c1cc(N2N=C(C(F)(F)F)/C(=C/c3ccc(-c4ccccc4)o3)C2=O)ccc1Cl` has an IC50 of greater than 20 µM.

Sample 2 — cell line: HEK-293T; read-out: pseudovirus infection; technique: FDA-approved drug library screen; organism: VSV pseudotyped with SARS-CoV-2 spike; tested at: 10 µM; time: 16 h; relative to: vehicle-treated
For `C=C[C@H]1CN2CC[C@H]1C[C@H]2[C@H](OC(=O)OCC)c1ccnc2ccc(OC)cc12`, the GFP-positive cells was 71.8%.
`Cc1ccc(C(=O)c2cc(O)c(O)c([N+](=O)[O-])c2)cc1` gave a GFP-positive cells of 80.9%.
`Oc1c(Cl)cc(Cl)c2cccnc12` gave a GFP-positive cells of 74.2%.

Sample 3 — technique: RNA Bind-n-Seq; molecule type: RNA; matrix: in vitro; tested at: not given; relative to: input RNA pool; reading: higher = stronger binding
Target: RING finger protein unkempt homolog, zinc fingers 1-6, GST-SBP tag (UNK, Homo sapiens, UniProt Q9C0B0, residues 30-357)
Sequence of UniProt Q9C0B0 (30-357, looked up): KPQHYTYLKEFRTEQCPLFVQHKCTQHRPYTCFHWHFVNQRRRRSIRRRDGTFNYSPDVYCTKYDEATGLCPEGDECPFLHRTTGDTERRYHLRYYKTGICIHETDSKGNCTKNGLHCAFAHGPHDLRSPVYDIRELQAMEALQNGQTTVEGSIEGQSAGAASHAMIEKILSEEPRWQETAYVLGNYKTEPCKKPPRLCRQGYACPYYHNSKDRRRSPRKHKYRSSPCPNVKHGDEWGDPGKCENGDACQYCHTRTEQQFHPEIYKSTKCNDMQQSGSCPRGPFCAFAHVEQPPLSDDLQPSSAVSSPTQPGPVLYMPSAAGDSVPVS
Setting: RNA with constant flanks, human-mouse chimeric sites, ends assumed
The bound/input enrichment of `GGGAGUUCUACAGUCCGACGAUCUUUGUAUUUAUGCUAAGCACACGUGCUGGUGGUCUGGGCAUCAAUCUUGCAACUGCUGAUGUAGUCAUUUUGUAUGACUCAGAUUGGAAUCCGCAAGUUGAUCUUCAGGCUAUGGACCGUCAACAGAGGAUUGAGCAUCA` is reported as 0.1 ratio.
With `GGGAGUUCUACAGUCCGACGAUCUAACCACAUCAAGAUGGUUGGGAAGCUGAAGCAGAACUUACUCUUGGCAUGUCUGGUGAUUAGUUCUGUGACCGUGUUUUACCUGGGCCAGCAUGCCAUGGAGUGCCAUCACCGGAUAGACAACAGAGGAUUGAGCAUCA` the bound/input enrichment was 0.219 ratio.
`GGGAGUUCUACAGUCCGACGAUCCAGGGCAUCAUCUCUCGUGCUGUUAGACACCUGUUCAAGAGUAUUGAAGAAAAAAAAACCUCAGCGAUUAAAAAUGGGCUGCCCCCUCCUGAAUUCAAAGUGAAUGCCCAGUUCCUAGAGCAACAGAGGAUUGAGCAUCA` has a bound/input enrichment of 0.637 ratio.
`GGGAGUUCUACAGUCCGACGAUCGUGACAGGUGUUAAGAUUUCCCCUCAGCAAAGAAGUGCAGUAGUCACCAUAAUUCCAUCUGUGGUGAGUGCCAGUCAGAUUGUGGAGCUGGUUCCAGACCUCAGUUUAGACAUGGGAACUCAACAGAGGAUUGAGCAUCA` gave a bound/input enrichment of 0.212 ratio.
The bound/input enrichment of `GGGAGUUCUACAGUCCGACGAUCGAUAAGAAAAGCUUGUUGGAGACCCGCUUGCACAUCACUGGUAGAGACCUGAGGUGUCAAAUAGCUGAAACUUUCGGAUUUCAAGAAAAUUACAUCAAGAUCGUAAUAAAUAAGAAGCAGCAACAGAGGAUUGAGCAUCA` is reported as 0.473 ratio.
With `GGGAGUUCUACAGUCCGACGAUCAACAUUUUGUCAAAUUGUUAUGUUCCUGUGAAACAAGUGAACACUCUGAUACACUUCAUCUGCUUGUACAUUUAACUGAUAGAGAAAUGUAAAUAUGUUAAUCCAAGCAAUGUGUCACUUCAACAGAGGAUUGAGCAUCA` the bound/input enrichment was 0.248 ratio.
The bound/input enrichment of `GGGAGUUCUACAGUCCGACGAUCUUAAUCCCCUUCGUUGCUCCCCCACUUCUCAUGGUAAUAACAAAGUCUUAUAUCCCCGUCCUAGCUUUCACUCAGAUGGCUUAUGGAGCCGGUUUCCUAGCUUUCUUGGGUGGGAUCAGACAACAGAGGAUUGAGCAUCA` is reported as 0.404 ratio.
For `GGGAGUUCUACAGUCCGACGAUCGGAUCUUUGGGACUGUUUUGCUUGAUUGGUCAUUGAUAGCUUAACAAACAUGGAGAUAAGAUUAGAAAUCUUGACAUCAACAGGUAUUAAGCAGAAAAAACCAUGGCCACGUGUCUCCUGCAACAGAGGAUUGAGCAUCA`, the bound/input enrichment was 0.138 ratio.

Sample 4 — technique: EMSA with sequencing; molecule type: double-stranded DNA, one strand shown; matrix: in vitro; tested at: 10 and 20 nM; relative to: negative control set to 0; reading: higher = stronger binding
Target: Hepatocyte nuclear factor 3-alpha (Foxa1, Mus musculus, UniProt P35582, residues 1-468, full length assumed)
Setting: whole designed probe, mean of two concentrations, ends assumed
Construct (chain): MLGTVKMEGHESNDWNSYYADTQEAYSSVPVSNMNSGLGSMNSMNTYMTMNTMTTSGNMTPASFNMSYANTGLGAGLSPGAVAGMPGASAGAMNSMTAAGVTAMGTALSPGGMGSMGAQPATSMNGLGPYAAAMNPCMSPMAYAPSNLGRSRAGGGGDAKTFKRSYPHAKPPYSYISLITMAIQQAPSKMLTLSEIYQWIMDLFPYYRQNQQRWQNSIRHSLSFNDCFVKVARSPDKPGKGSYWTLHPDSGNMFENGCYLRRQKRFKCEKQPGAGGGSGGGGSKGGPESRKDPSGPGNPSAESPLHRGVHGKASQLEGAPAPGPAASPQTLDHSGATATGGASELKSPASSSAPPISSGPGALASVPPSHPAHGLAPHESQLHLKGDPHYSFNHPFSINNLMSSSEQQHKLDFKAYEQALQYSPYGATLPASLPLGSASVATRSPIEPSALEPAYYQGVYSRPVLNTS
`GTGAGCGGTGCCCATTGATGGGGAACTTTTTTCTGTACAGGGAAAAATAGTGAATATTTCAAAATTGTGAAACAAAGAGTCTCTGTGGCAACTACTCATTGTTGCATAACAGACAATATGCAATCTAATGAGTGTGTCTGTGTTCCAATAAAACTGTATTTACAAAAGCAGAAGGCCACCCATGTGCCAATGTCCAAAGTTTCTCAACCAACCCCTGGTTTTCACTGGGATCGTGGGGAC` — result for “normalised bound fraction”: 0.123 ratio.
`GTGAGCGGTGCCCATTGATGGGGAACAACTATTATAAATAACAATTACAGAGGCGTATCAAAAAGGCTTTTAATTGAAGAGTATTTACAATTAAATTATAACAGAAAGAATACTGTAAAAGTAATCTAGTAAGTTCTTTTTGAAAAACAGGAATGTGTAACATTCAAAAAGACCACAAAAATTAATTTCTGTGTTACAGAATATTGAGAAATCCTATTCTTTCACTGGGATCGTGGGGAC`: “normalised bound fraction” 0.0953 ratio.
`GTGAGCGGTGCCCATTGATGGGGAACATCTTCCCCCTCTTCCTTGCCCCACCAGCTCACCTTCCCGGGTTATTTGCAGATAGGAAAATAAATAAAGCCGGCATTCGTTAACCCTCTGTAGATCGCTTGTCCGACTTGCTCTGGATGAATCATGGTCCTTTGGCGACGCCAGGCTCCGGGAGAGCAAAGCACCGTGTCAGGGCCATGATCCGGGGTGGCCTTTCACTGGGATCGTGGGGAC`: “normalised bound fraction” 0.338 ratio.
For `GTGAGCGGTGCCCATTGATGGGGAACCTGTTCCAGACCCTAGTCTTTCAATCTAATGTTTATACACAAATCTAGATTCAGATATCTATTTTGAATTTCATTTAGGTTTTTGTTTCTAAGTAAACATCAGAGGATTAGTTTGGGTTTTGTTCACCCATGTCTTTTAAAGTTCTAAAGAACCTTTGTATCTAAGCTCAACTTTATATTTAAGTTCAACTGCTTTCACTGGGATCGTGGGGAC`, “normalised bound fraction” read 0.46 ratio.
For `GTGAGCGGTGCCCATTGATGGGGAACTGCACCACTCAGCCCCTCCTAGTCCGCTGGAGAAAGTGGCTGAGGGGGTGGTGGGGGATAATTGCATTTCCAAAGTCCGGGCAATCAGCCAATGTAAACAGGCACCAGCGTCTCTGTGTGGGCTCTCTAGGCAACAGGTAAAATACATCAAATACACACAATTTCCTGACATTCCAATGCATTTCTGCGTGAGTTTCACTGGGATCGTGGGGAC`, “normalised bound fraction” read 0.284 ratio.
`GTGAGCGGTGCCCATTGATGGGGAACTCAACTCAGACTGCTTGAAAAAGGAATAGTGAGTTCAAAGATGCAAAGATGCCAGCGGCTGCATGTTACATTTTTGAGAGGTAGCCTTCAAAGTAATCTAGAAAAATGGGATTTTTTATGTTAATATGTGATTCATTTTAGAAAGAATGTTTCTTCGCTTAGTCTCTCCACATAAGATACTTACAGGTTTCCATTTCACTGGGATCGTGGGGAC` — result for “normalised bound fraction”: -0.0846 ratio.
`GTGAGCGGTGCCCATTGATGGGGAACCCCTCATCCTGGGTGTCGGGGTGGGAGGTGTTCTCATCATGAATGGGAGGCGTACCCAGATCCAGCTCTGCCTTTTTTTAACCAAACCACATTTGTTTACACTCGCTGTTAATCGACATAGTGACTCACCAGCAAGATATGATACATGCCAGGAGAGAAAAAGAAAGTGCTGATGGAAAAATAATCTCATTAGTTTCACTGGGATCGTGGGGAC`: “normalised bound fraction” 0.335 ratio.
`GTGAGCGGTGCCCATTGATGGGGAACACTTTCATATGCTTCTGTAAAACCATCAAGCTGAATCGAATTCTCTTCAGGTATTCTTATCTCCCCGTAACTTGCCTTTGGTTCAGTCTCCATGTTTACATTCCCTTTATTTACAGGACTCCGCCTTTTATCTTTCTTTTGAGCTAAAAAAGCAACCTGGCTGGAGGTAATTATACTGAGAAATTCTGTATCATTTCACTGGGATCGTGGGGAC`: “normalised bound fraction” 0.303 ratio.

Sample 5 — mode: inhibitor; tested at: 20 µM
Target: Replicase polyprotein 1ab, nsp13 helicase (rep, Severe acute respiratory syndrome coronavirus 2, UniProt P0DTD1)
For `CC(C)(C)NS(=O)(=O)c1cncc(-c2cc(F)c3nc(N)nn3c2)c1`, the inhibition was 1.98%.
With `CNC(C)CC1CCCCC1` (centres unmarked) the inhibition was 4.24%.
`N[C@@H](CCC(=O)N[C@@H](CS)C(=O)NCC(=O)O)C(=O)O` gave an inhibition of 4.66%.
With `COc1cc2c(cc1OC)[C@@H]1Cc3ccc(OC)c(OC)c3CN1CC2` the inhibition was 1.42%.
For `COc1ccc(-c2oc3cc(OC)ccc3c2C(=O)c2ccc(C#N)cc2)cc1`, the inhibition was 0.24%.
The inhibition of `CCCCCC(O)CCCC(=O)O` (centres unmarked) is reported as -2.54%.
`O=C(/C=C/c1ccc(O)c(O)c1)OCCc1ccccc1` gave an inhibition of 1.32%.
`Cn1c2c(c3ccccc31)CCNCC2` gave an inhibition of 8.46%.
With `Oc1ccc2c3c1O[C@H]1c4[nH]c5ccccc5c4C[C@@]4(O)[C@@H](C2)N(CC2CC2)CC[C@]314` the inhibition was 0.27%.
For `Cc1ccc(-c2cc(C(F)(F)F)nn2-c2ccc(S(N)(=O)=O)cc2)cc1`, the inhibition was 10.9%.
With `c1ccc2c(-c3cnn4cc(-c5ccc(N6CCNCC6)cc5)cnc34)ccnc2c1` the inhibition was 12.1%.
`C[N+]1(C)CCC(OC(=O)C(c2ccccc2)c2ccccc2)CC1` gave an inhibition of 7.27%.
The inhibition of `Cc1ccc2c(c1)c1c3n2CCNC3CCC1` (centres unmarked) is reported as 5.12%.
The inhibition of `Clc1cccc(Cl)c1NC1=NCCN1` is reported as -0.26%.
For `O=C(Cn1ccnc1[N+](=O)[O-])NCCO`, the inhibition was 3.94%.
`O=C(Nc1cccc2c(=O)cc(-c3nnn[nH]3)oc12)c1ccc(OCCCCc2ccccc2)cc1` gave an inhibition of 12.1%.
`c1ccc(-c2oc3ncnc(NC[C@@H]4CCCO4)c3c2-c2ccccc2)cc1` has an inhibition of -2.13%.
`CC(C)NCC(O)COc1cccc2[nH]c3ccccc3c12` (centres unmarked) has an inhibition of 4.14%.
The inhibition of `Cc1[nH]c2ccccc2c1CCNCc1ccc(/C=C/C(=O)NO)cc1` is reported as 8.21%.
For `OC(Cn1cncn1)(Cn1cncn1)c1ccc(F)cc1F`, the inhibition was 3.55%.
For `C[C@](N)(Cc1ccc(O)cc1)C(=O)O`, the inhibition was -2.81%.
`N=C(N)NCCCCN` has an inhibition of -3.59%.
The inhibition of `CCCCCCCCC(=O)NCc1ccc(O)c(OC)c1` is reported as 4.31%.
For `Cc1nnc(SCC2=C(C(=O)O)N3C(=O)[C@@H](NC(=O)Cn4cnnn4)[C@H]3SC2)s1`, the inhibition was 3.88%.
For `COc1ccc(S(=O)(=O)N(C(C)=O)c2ccccc2/C=C/c2cc[n+]([O-])cc2)cc1`, the inhibition was -2.74%.

Sample 6 — technique: Spec-seq; molecule type: double-stranded DNA, one strand shown; matrix: in vitro; tested at: not given; setting: whole probe, mean of replicates; relative to: not given; reading: lower = stronger binding; all sequences stand within: GAGTCGTCTCGTCAGCAC … CCGTAGAGCACTCAGGTC
Target: POU domain, class 5, transcription factor 1, POU domain (Pou5f1, Mus musculus, UniProt P20263, residues 131-289)
Sequence of UniProt P20263 (131-289, looked up): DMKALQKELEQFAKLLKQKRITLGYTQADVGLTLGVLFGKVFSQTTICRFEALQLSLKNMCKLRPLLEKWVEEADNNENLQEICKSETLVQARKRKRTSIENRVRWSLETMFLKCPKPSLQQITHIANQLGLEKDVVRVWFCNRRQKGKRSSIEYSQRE
For `ATGCGTTT`, “relative binding energy” read 0.058 ln ratio.
`ATGCGTCC` — result for “relative binding energy”: 0.472 ln ratio.
`GTTGTAAT` — result for “relative binding energy”: 0.718 ln ratio.
`AGAGTAAT`: “relative binding energy” 0.662 ln ratio.
Under “relative binding energy”, `ATGCCGGC` is recorded as 0.895 ln ratio.
Under “relative binding energy”, `ATACGAAT` is recorded as 0.184 ln ratio.

Repeated from above (sample 5):
The inhibition of `Cc1[nH]c2ccccc2c1CCNCc1ccc(/C=C/C(=O)NO)cc1` is reported as 8.21%.
`N=C(N)NCCCCN` has an inhibition of -3.59%.
The inhibition of `CCCCCCCCC(=O)NCc1ccc(O)c(OC)c1` is reported as 4.31%.
For `CC(C)(C)NS(=O)(=O)c1cncc(-c2cc(F)c3nc(N)nn3c2)c1`, the inhibition was 1.98%.
`N[C@@H](CCC(=O)N[C@@H](CS)C(=O)NCC(=O)O)C(=O)O` gave an inhibition of 4.66%.
For `COc1ccc(S(=O)(=O)N(C(C)=O)c2ccccc2/C=C/c2cc[n+]([O-])cc2)cc1`, the inhibition was -2.74%.
